Results collected from several papers.
Numbered parts are unrelated; each lists some results of a single study. Changes are numbered by the printed parent chain.

Set 1
Target: Protein C-ets-1 (ETS1, Homo sapiens, UniProt P14921, residues 1-441, K379A, full length assumed)
Technique: protein-binding microarray
Molecule type: double-stranded DNA, one strand shown
Medium: in vitro
Tested at: not given
Notes: k-mer, scored over probes, only values ≥0.25
Direction: higher = stronger binding
Residues (chain): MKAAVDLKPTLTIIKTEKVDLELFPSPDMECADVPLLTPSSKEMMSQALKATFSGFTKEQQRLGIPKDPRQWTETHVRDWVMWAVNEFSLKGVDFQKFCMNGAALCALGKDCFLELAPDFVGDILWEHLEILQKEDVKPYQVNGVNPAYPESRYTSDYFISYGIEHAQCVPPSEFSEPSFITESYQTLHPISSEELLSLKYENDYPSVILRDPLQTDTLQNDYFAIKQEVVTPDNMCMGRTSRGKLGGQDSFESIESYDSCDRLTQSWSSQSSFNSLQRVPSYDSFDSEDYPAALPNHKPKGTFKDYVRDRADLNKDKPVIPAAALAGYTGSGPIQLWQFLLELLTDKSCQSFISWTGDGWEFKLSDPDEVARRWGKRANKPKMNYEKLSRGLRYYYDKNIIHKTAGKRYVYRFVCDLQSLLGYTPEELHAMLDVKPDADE
| Sequence | E-score |
| --- | --- |
| CCCACCGG | 0.308 |
| AGTACCGC | 0.265 |
| CGGTAAGA | 0.293 |
| ACCGGGAC | 0.474 |
| CGCTTTAC | 0.29 |
| CCCCGGCG | 0.32 |
| ACGTTGAA | 0.266 |
| CGGAAATA | 0.298 |
| AACGGTAC | 0.339 |
| GACAGGTA | 0.275 |
| CATTGTTC | 0.27 |

Set 2
Target: Histone acetyltransferase KAT6A, winged helix 1, GST fusion (KAT6A, Homo sapiens, UniProt Q92794, residues 1-85)
Technique: protein binding microarray
Molecule type: double-stranded DNA, one strand shown
Medium: in vitro
Tested at: not given
Notes: 8-mer, flanks averaged, mean of 2 arrays, mostly near background
Baseline: not given
Direction: higher = stronger binding
Construct (chain): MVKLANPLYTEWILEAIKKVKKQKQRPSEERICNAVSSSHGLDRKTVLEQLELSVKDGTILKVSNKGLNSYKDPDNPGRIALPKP
| Sequence | E-score |
| --- | --- |
| GCGAATGA | 0.122 |
| ATAGTAAA | 0.0279 |
| ACGGGGTC | 0.345 |
| CTCGTCAC | -0.11 |
| CAGGAACG | 0.0534 |
| AGTGTATA | -0.0835 |
| CTCCACTA | -0.138 |
| AGAGTTGC | 0.0768 |
| AAGCGTTA | -0.016 |
| ACAGACGA | -0.0316 |
| AGCAGGTC | 0.0137 |
| GCTATAGA | 0.0173 |
| CCGAAGAA | -0.0391 |
| CGGGAACC | 0.361 |
| ATGGCATC | -0.0984 |

Set 3
Target: BATF2, bZIP domain (human)
Technique: DHFR protein complementation
Medium: yeast
Notes: single substitutions, most at no-binding floor
Baseline: wild-type JUN-FOS pair
Direction: higher = stronger binding
Starting sequence: JUN, bZIP domain (human); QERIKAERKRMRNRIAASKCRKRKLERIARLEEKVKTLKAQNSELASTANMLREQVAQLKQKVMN; partner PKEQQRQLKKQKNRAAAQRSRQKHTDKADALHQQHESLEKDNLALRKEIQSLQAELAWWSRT
| Variant | binding fitness [natural log] |
| --- | --- |
| R30I | -0.238 |
| R53A | -0.712 |
| A40N | -0.414 |
| K39G | -0.746 |
| V35R | -1.38 |
| A40Q | -0.134 |
| I28L | -0.2 |
| A57Y | -0.577 |
| A29N | -0.435 |

Mixed results
| Molecule | target | assay | test system | conditions | how to read | measurement | value |
| --- | --- | --- | --- | --- | --- | --- | --- |
| PhoQ, residues 284 288 289 292 302 303 GASLAW | PhoP, residues 12 14 15 18 19 HEGLL (Escherichia coli, UniProt P23836) | Sort-seq, refers to: YFP reporter | E. coli | PhoQ-PhoP variant library, added: 10 µM Mg2+ | baseline: high Mg2+ state, higher = stronger signaling | fold induction | 0.836 |

For quick reference, copied from above (set 3):
| Variant | binding fitness [natural log] |
| --- | --- |
| V35R | -1.38 |
| A29N | -0.435 |
| A40N | -0.414 |
| R53A | -0.712 |
